Results collected from several papers.
Every numbered part comes from another study and shows a few of its results, in no order. Positions count from the first letter of the parent shown.

Study 1
Target: CCNE1, cyclin fold, Cln2 fusion (human)
Method: yeast growth competition, sequencing
Medium: yeast
Setting: weak parent motif
Baseline: not given
Reading: higher = stronger binding
Measurement: normalised enrichment score
Parent: ITGB3BP docking peptide (human); MPVKRSLKLDGLL
K4A: 0.714
L13A: 0.502
R5K L9F: 0.493
S6A: 0.706
K8A: 0.649
G11A: -0.0737
P2A: 1.13

Study 2
Target: Sal-like protein 4, full length isoform B (SALL4, Homo sapiens, UniProt Q9UJQ4-2, residues 1-616)
Method: universal PBM
Molecule type: double-stranded DNA, one strand shown
Medium: in vitro
Concentration: not given
Setting: 8-mer, flanks averaged, mean of replicates
Reading: higher = stronger binding
Measurement: E-score
CACAAAAC: 0.108
GGCTCGAA: -0.185
AGCTCGGC: -0.141
ATGCGCTG: -0.18
ATGTCTCC: 0.0278
CAACTTAA: 0.139
ACTGGTCA: -0.0712
AAGCCGTG: -0.104

Study 3
Target: RING finger protein unkempt homolog, zinc fingers 1-6, GST-SBP tag (UNK, Homo sapiens, UniProt Q9C0B0, residues 30-357)
Method: RNA Bind-n-Seq
Molecule type: RNA
Medium: in vitro
Concentration: not given
Setting: RNA with constant flanks, human and mouse sites, ends assumed
Baseline: input RNA pool
Reading: higher = stronger binding
Measurement: bound/input enrichment
All sequences stand within: GGGAGUUCUACAGUCCGACGAUC … CAACAGAGGAUUGAGCAUCA
Target sequence (chain): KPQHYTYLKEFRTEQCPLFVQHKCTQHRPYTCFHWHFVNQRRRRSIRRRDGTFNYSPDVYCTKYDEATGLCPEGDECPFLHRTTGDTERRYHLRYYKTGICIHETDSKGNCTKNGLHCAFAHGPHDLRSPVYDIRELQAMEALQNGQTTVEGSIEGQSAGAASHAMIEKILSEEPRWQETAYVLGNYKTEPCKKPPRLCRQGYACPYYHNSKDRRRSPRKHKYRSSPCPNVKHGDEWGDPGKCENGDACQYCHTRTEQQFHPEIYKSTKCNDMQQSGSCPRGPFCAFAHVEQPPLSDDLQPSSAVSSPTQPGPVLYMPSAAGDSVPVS
AUAAGUUAUAAUUUCUGUUCACUUUGUAUUUGUUCAGUAUGCAAAGUGUGUCACCCUUUCUAGCUGAAUUCAAUUCCCACGUAGACUCUUAUUUUAUAGGACGAAUGCCAAAUUGCAGCU: 10.3 ratio
UGUUGUACACCUAGAAUCUUUGUGAAUAAUGUGAGGCCAGUUCUUCCAUAAGGAAGGCUGGUUAUGGAUAUUCAUAAGGUUAUUUCAAAGUUAAUAAAGACAAAGUGGCAACUGUAGAAA: 0.305 ratio
AAAGAAUAUACUGAUGUAUACCCUGAAAUCAUUGAACGAGCAGGCUAUUCCUUGGAGAAGGUAUUUGGAAUCCAAUUGAAAGAAAUUGACAAGAAUGACCACUUGUAUAUUCUUCUCAGU: 0.11 ratio
GGUUUUGACCGUCACAUUACUAUCUUCUCUCCCGAGGGCCGACUCUACCAAGUAGAAUAUGCUUUUAAGGCUAUUAACCAGGGUGGACUUACAUCUGUUGCUGUCAGAGGAAAGGACUGU: 0.317 ratio
UUCUUAUACCUGGAUUUGGAAUUGAGUAUUCUUGAAAUGCCUAUAUUUGAGGAAGAUAAAUUAGGAGUUUAGAGAGCCAUAGUAAUACACUGAACGUUUCUUGUUAAAACUGUAACCUUG: 2.73 ratio
ACACCCUUGGCCAGCCUUUCUCCUGAAUAUCAGCUACCAAGAUCAGUACCAGUGGUGCCGUCUUUUGUAGCCAAUGACAGAGCAGAUAAAAAUGCUGCUGCCUAUUUUGAGGGUCAUCAU: 0.0878 ratio
GUAUAUAUAUAUAUUUUUUUUUGCUUAUUUAUAGGUGCUGUAUUUUAUUAUCUGAUUGUUAGGAAGGGAUGAAAGGGGCAAAUAUUCUUUAGAGGGAUAGACUGCCGGCAGUAUUGGGUA: 23.9 ratio
UCUAUUCGAAACCCCAAAGCCCGAGCCGUAACGUUAAGGGUUAAACUUUCCAGUUUGAAUUUAGACAAUCAUGCCAAGAAAAAACUCAUUAAGCUUGUAGGAGAGCGGUACUGCAAGGCC: 0.535 ratio
CUUCUACCGGGCGCCCCACGGGCCGAAGCCGCUCCAGUGUGCUGCUCUGCUCGUUACAACUUAGCAAUUUUGGCCUUUUUUGGUUUCUUCAUUGUGUAUGCAUUACGUGUGAAUCUGAGU: 1.83 ratio
GUUAUUCUUGUAUGUAAUCCUGUGGCUUAACGACUUUUCCCUCCUCACCCUGCACUUCUCUAGCUCUCUGUUCCCUCUCCAUGGCUCUGACUCUUCUUAUUCUUGUGCUAAGACUUGUAG: 1.04 ratio
UCAGAACUCAUCUCCACUCGUUUCACAGGCGCCACUGGCAGAGCAUUUCUUUUUAACAAGGUAGUUAACCUGCAGUACAGUGAAGUUCAAGAUCGGGUCAUGCUCACUGGCCGCCACAUG: 0.138 ratio

Further values, each from its own experiment
PhoQ, residues 284 288 289 292 302 303 DDMDFR — fold induction (PhoP, residues 12 14 15 18 19 MHTVL (Escherichia coli, UniProt P23836); Sort-seq, item: YFP reporter; E. coli; PhoQ-PhoP variant library, together with: 10 µM Mg2+; baseline: high Mg2+ state, higher = stronger signaling): 0.693

For quick reference, copied from above (study 3):
ACACCCUUGGCCAGCCUUUCUCCUGAAUAUCAGCUACCAAGAUCAGUACCAGUGGUGCCGUCUUUUGUAGCCAAUGACAGAGCAGAUAAAAAUGCUGCUGCCUAUUUUGAGGGUCAUCAU: 0.0878 ratio
GUAUAUAUAUAUAUUUUUUUUUGCUUAUUUAUAGGUGCUGUAUUUUAUUAUCUGAUUGUUAGGAAGGGAUGAAAGGGGCAAAUAUUCUUUAGAGGGAUAGACUGCCGGCAGUAUUGGGUA: 23.9 ratio
